# Measurements gathered from unrelated publications.
# Numbered parts are unrelated; each lists some results of a single study.

# Set 1 — technique: Spec-seq; form: double-stranded DNA, one strand shown; medium: in vitro; concentration: not given; notes: whole probe, mean of replicates; reference: not given; reading: lower = stronger binding; constant ends, left off below: GAGTCGTCTCGTCAGCAC … CCGTAGAGCACTCAGGTC
# Target: Transcription factor SOX-2, HMG box (Sox2, Mus musculus, UniProt P48432, residues 41-119)
# Chain of UniProt P48432 (41-119, looked up): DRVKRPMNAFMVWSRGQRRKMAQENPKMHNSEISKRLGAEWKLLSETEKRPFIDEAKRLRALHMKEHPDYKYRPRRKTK
Strand,relative binding energy [ln ratio]
GCAGGTT,1.39
TAAGGTT,0.223
CATGCCA,0.522
CATATCA,0.299
CATGGCC,0.23
CCCGGTT,1.31
CATTTAT,-1.19
CATAGTA,-0.803
CGATGTT,0.599
CATGAGC,0.144
CATTGCA,-0.0958
TACGGTT,0.734
CATTGCT,-0.355
CATCCGT,1.05
CATGGGC,0.0425
TGGTGTT,0.593
CATGTTG,0.564
GTAAGTT,0.771
GGATGTT,0.958
CTTCGTT,0.72
TAGGGTT,0.913
CATACCT,0.354
GGCTGTT,0.66
AGCCGTT,0.862
TTGGGTT,1.16

# Set 2 — technique: aptamer microarray, sandwich; form: DNA with 2'F-ANA; medium: in vitro; concentration: 200 nM; added: Cy3 exosite-II aptamer, 400 nM; reading: higher = stronger binding; strand: GGTTGGTGTGGTTGG
# Target: Prothrombin, mature alpha-thrombin (F2, Homo sapiens, UniProt P00734)
# Notes: whole 15-mer aptamer, many near background
Modification,mean fluorescence intensity [a.u.]
2'F-ANA at 1 2 4 7 8 10 11 12 15,59.1
2'F-ANA at 4 9 11 13 14 15,69.4
2'F-ANA at 2 3 4 5 6 7 9 12 14,67.5
2'F-ANA at 3 7 9 10 11 13,550
2'F-ANA at 2 3 4 5 7 8 9 10 13 14 15,50.6
2'F-ANA at 2 4 5 9 10 12 14 15,45.7
2'F-ANA at 7 8 9 10 12 14,144
2'F-ANA at 2 3 6 13 14 15,353
2'F-ANA at 1 2 3 5 7 8 10 11 12 14 15,50.3
2'F-ANA at 2 6 7 8 9 13 14 15,123
2'F-ANA at 3 4 5 7 8 9 14 15,82.7
2'F-ANA at 2 4 5 6 9 15,70.5
2'F-ANA at 3 5 6 7 10 11 12 15,61.1
2'F-ANA at 2 3 4 5 6 7 8 10 11 12 14 15,56.1
2'F-ANA at 2 3 9 13 14 15,379
2'F-ANA at 1 3 12 14 15,147
2'F-ANA at 4 5 6 9 11 12 13 15,69.5
2'F-ANA at 1 2 6 7 9 10 12 14,53.8

# Set 3 — technique: RNA Bind-n-Seq; form: RNA; medium: in vitro; concentration: 365 nM; reference: no-protein control; reading: higher = stronger binding
# Target: RNA binding protein fox-1 homolog 2, RRM domain, GST-SBP tag (RBFOX2, Homo sapiens, UniProt O43251-10, residues 100-194)
# Notes: natural RNA segment, single round, ends assumed
# Constant ends, left off below: GGGAGUUCUACAGUCCGACGAUC … UGGAAUUCUCGGGUGCCAA
# Construct (chain): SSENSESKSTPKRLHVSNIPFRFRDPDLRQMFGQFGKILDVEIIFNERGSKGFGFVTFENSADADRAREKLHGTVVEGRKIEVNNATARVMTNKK
Strand,RBNS enrichment (R)
AGCAUUUUUUAGGGAGAAAAAUAAAUAUAUGCUGUAGUGGCCACAAAUAGGCCUAUGAUUUAGCUGGCAGGCCAGGUUUUCUCAAGAGCAAAAUCACCCUCUGGCCCCUU,0.434
AUAACAACCUUUUACAUUGUGACUGUGUUUGCAUUGUCUAAUGACAGAUAAAUCCUUAACAUUUCUCUCCACCUUAGUACUUUAGACUAAUUGUGUUUGUCCGUCCAUGC,0.392
GGAGAGUGACAGCAGCUAUAGGGUGGACUCAGGAGCUGUCAGUCUUAACAGCUGAGCCUUGGACCCCACUGCCUCUGAGUCUACAUUCUGGCAGGCAGUCCCAUGCUCUG,0.458
AGUGUGCUGCUAUGCCUCUCUGCCUAGGAACCAAAUUUUAAAGAAGUCAGAGACAUUUUGAGGUGGUUACUACAGAUUACUGUUUCACAUUGUUUUCCUCACUGGACAGG,0.253
AUCCAGACAAGAAAUCAACAUGCUAUCAAGAACCAGGUUGAAGCAAAACUGAAAGUGUGUGAUAUUUUUGUUGACGUUAUUUAUAAAAAUAUUUCAACGCUGUCAAUAAU,0.533
CUGGCUUCUUUCACUCAGUAAUGUUUCUGAAGUUCCUCCCUGUAGUGGCAUCUAUCAGUAAUUGCUUUCCUUUUUAUUGCUGGGCUGAAUGCUGUUCCAUUGUAUGGCUG,0.554
CUCAGGUUCAGUGGGACUGCCACUGUUAAGGAAGCCACGUUGCUGAUGGGAGGUCUCACCGGCCACAGUGAGGGUUGUUUCCUGACAAGACUUUUGUGUUAAGGAUGUGU,0.471
CUAUUUUGUUGUCAAUACAAUUUAAUAUCAAUCAGAGUAAUCCUUUGUACAUUGAGAGGAGGGGCUUGGUUUCACCAUCCCCGUCCUUUCCCCACGGAUCCACCAGGAUU,0.213

# Set 4 — technique: protein binding microarray; form: double-stranded DNA, one strand shown; medium: in vitro; concentration: not given; reference: not given; reading: higher = stronger binding
# Target: Histone acetyltransferase KAT6A, winged helix 1, GST fusion (KAT6A, Homo sapiens, UniProt Q92794, residues 1-85)
# Notes: 8-mer, flanks averaged, mean of 2 arrays, mostly near background
# Residues (chain): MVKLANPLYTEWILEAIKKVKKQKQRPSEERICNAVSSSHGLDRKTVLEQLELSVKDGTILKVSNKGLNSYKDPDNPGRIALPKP
Strand,E-score
ATGCGATA,-0.00215
AGCACGAC,-0.041
ACGGCTAT,0.327
GCCTCACA,-0.18
ACGTTACA,-0.0473
CGATGTTC,0.0136
ACCCTTCT,-0.112
ATGGCCAT,-0.159
AACTGCGT,0.127
ATTGATGC,0.0102
AACTAAGG,-0.0868
CCCACCGC,0.281
ACGATCGT,-0.131
CGCGGGCC,0.434
AAAATCAA,-0.157
ACTATAGA,-0.0917
AATGATGT,-0.153
GCTGCGAC,0.133
ACACTGAC,-0.187
CCTGGCTA,-0.263
GTGGTAAC,-0.0975
CAACAGAA,-0.137
CCATTACG,0.0802

# For quick reference, copied from above (set 3):
Strand,RBNS enrichment (R)
AUAACAACCUUUUACAUUGUGACUGUGUUUGCAUUGUCUAAUGACAGAUAAAUCCUUAACAUUUCUCUCCACCUUAGUACUUUAGACUAAUUGUGUUUGUCCGUCCAUGC,0.392
GGAGAGUGACAGCAGCUAUAGGGUGGACUCAGGAGCUGUCAGUCUUAACAGCUGAGCCUUGGACCCCACUGCCUCUGAGUCUACAUUCUGGCAGGCAGUCCCAUGCUCUG,0.458
AGUGUGCUGCUAUGCCUCUCUGCCUAGGAACCAAAUUUUAAAGAAGUCAGAGACAUUUUGAGGUGGUUACUACAGAUUACUGUUUCACAUUGUUUUCCUCACUGGACAGG,0.253
AUCCAGACAAGAAAUCAACAUGCUAUCAAGAACCAGGUUGAAGCAAAACUGAAAGUGUGUGAUAUUUUUGUUGACGUUAUUUAUAAAAAUAUUUCAACGCUGUCAAUAAU,0.533
